Published values pooled from the literature.
TMPRSS2: Transmembrane protease serine 2 (TMPRSS2, Homo sapiens, UniProt O15393)
UniProt O15393, sequence (whole entry, looked up): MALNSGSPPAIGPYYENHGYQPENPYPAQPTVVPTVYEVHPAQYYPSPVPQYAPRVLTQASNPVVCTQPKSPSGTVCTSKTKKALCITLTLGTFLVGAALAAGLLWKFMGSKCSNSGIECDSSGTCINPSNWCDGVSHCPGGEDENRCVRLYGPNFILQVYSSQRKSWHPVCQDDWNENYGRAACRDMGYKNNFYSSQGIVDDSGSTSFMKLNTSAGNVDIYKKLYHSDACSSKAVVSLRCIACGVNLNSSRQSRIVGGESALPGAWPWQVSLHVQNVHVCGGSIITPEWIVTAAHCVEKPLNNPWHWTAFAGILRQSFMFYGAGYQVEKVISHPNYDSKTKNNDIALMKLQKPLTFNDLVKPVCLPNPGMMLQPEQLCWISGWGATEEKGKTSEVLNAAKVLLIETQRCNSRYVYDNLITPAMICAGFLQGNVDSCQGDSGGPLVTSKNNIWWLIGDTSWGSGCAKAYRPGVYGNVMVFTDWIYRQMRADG
PFF0160c: Dihydroorotate dehydrogenase (quinone), mitochondrial (PFF0160c, Plasmodium falciparum, UniProt Q08210)
UniProt Q08210, sequence (whole entry, looked up): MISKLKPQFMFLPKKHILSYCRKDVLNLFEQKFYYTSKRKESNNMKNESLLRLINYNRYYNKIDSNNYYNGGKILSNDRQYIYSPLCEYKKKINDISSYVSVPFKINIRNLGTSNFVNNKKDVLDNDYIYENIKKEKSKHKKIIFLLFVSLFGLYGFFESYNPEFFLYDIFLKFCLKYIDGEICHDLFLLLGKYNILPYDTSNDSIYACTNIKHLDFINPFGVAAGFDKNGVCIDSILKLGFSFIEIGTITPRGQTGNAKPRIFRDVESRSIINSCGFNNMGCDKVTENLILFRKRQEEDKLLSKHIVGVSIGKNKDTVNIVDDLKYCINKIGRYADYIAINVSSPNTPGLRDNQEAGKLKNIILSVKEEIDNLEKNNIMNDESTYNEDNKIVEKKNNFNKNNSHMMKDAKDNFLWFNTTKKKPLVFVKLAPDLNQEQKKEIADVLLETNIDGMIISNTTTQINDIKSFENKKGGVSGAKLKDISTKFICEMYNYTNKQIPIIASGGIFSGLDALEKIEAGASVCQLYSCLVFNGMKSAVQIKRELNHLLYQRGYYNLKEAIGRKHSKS
UniProt P25103, sequence (whole entry, looked up): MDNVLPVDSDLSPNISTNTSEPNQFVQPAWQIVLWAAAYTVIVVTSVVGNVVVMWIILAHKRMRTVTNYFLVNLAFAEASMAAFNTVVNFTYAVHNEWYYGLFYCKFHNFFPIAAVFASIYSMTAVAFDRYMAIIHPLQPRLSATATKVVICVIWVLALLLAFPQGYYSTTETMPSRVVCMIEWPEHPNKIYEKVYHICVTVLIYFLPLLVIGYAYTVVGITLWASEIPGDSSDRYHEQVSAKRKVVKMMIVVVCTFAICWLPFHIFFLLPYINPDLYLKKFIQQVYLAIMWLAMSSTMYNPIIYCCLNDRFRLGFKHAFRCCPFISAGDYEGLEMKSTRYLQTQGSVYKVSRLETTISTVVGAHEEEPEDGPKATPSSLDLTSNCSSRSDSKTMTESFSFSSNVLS
UniProt P53667, sequence (whole entry, looked up): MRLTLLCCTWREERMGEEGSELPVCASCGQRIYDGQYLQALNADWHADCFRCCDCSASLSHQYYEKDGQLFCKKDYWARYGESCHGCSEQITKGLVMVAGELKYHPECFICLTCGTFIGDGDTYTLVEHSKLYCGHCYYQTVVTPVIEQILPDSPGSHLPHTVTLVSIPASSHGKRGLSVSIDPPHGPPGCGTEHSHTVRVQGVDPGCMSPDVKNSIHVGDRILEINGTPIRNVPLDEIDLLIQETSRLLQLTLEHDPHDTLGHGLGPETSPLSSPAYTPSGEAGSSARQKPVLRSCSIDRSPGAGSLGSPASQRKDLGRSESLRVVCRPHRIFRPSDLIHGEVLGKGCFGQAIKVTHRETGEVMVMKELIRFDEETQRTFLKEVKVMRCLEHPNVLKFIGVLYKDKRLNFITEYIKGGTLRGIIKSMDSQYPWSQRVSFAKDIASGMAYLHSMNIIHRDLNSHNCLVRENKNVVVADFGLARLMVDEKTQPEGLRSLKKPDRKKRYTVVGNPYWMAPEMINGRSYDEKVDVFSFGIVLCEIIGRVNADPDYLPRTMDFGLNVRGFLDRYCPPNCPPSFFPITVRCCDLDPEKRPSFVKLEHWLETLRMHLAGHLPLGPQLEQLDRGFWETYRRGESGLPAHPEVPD
UniProt O75385, sequence (whole entry, looked up): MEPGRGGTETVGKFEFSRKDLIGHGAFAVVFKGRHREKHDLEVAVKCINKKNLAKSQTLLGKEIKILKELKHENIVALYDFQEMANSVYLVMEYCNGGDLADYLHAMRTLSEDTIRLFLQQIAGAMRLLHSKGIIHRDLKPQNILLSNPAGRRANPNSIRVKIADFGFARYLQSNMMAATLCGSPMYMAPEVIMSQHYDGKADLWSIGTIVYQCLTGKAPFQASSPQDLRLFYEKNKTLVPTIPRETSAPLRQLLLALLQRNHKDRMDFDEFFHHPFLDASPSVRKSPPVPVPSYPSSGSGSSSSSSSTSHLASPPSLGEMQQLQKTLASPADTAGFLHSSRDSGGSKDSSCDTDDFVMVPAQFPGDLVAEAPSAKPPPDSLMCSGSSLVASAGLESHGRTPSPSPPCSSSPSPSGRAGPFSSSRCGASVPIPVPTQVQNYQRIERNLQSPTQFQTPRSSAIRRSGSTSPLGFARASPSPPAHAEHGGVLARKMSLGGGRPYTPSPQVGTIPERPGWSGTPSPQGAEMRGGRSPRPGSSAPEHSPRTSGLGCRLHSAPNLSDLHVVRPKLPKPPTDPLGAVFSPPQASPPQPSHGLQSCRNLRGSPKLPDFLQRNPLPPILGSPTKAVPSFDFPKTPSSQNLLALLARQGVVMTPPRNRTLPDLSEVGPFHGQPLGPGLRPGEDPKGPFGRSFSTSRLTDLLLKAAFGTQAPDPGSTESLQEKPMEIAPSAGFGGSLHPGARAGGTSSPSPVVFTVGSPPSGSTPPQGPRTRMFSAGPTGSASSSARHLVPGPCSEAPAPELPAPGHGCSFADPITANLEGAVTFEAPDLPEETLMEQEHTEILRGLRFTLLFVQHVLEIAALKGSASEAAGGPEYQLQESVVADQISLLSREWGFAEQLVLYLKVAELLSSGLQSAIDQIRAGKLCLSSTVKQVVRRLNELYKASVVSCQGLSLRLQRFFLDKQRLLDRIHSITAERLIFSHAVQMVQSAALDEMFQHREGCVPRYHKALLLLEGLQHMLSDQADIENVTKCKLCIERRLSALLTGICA
UniProt P41144, sequence (whole entry, looked up): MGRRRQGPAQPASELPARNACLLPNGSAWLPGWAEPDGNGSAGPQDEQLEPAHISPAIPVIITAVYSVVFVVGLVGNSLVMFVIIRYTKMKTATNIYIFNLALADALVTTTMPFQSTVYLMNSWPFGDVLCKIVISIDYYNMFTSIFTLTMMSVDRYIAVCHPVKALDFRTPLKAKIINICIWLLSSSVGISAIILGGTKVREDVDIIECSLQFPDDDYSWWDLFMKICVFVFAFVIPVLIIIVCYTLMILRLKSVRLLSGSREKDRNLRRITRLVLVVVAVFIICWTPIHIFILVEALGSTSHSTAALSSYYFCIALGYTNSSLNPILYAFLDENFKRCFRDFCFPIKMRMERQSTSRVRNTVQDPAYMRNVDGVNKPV
UniProt P22303, sequence (whole entry, looked up): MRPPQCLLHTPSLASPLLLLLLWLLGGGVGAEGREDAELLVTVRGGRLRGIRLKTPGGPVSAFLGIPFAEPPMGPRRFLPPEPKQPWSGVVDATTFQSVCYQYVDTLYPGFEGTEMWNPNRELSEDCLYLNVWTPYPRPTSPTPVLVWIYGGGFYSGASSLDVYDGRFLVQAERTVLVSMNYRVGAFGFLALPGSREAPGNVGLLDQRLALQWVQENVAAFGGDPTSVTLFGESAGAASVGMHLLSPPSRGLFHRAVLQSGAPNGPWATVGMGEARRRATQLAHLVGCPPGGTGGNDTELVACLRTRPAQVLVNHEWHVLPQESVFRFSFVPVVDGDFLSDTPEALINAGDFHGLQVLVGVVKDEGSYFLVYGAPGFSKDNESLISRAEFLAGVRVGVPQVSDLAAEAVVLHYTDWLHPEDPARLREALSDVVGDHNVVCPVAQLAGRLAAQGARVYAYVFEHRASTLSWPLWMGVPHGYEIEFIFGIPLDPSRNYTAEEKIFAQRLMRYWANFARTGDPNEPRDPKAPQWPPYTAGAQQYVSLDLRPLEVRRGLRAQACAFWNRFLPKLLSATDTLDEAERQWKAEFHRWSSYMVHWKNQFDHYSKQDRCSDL
UniProt P21554, sequence (whole entry, looked up): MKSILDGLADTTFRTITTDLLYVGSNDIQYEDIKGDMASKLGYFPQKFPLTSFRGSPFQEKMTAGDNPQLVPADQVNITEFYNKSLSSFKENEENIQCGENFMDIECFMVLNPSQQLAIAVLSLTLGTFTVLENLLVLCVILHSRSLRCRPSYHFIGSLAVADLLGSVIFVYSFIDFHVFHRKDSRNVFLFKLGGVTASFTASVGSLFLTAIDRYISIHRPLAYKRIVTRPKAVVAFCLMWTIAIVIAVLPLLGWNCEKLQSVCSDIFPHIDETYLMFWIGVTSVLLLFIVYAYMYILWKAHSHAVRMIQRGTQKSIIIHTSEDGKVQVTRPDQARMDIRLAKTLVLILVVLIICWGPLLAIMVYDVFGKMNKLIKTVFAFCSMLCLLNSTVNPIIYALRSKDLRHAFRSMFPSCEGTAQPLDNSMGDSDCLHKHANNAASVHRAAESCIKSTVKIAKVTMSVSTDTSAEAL

SMILES	target	assay	conditions	measurement	result
CC(C)CC(=O)OC[C@H]1O[C@@](C#N)(c2ccc3c(N)ncnn23)[C@H](O)[C@@H]1O	Substance-P receptor (TACR1, Homo sapiens, UniProt P25103)	cell-free assay	20 µM	inhibition	32%
CC[C@@H](C)[C@@H](NC(=O)[C@H](CCc1ccccc1)NC(=O)CCc1ccccc1)C(=O)N[C@@H](CCCNC(=N)N)C(=O)c1nc2ccccc2s1	TMPRSS2	enzyme activity, inhibitor	1 nM	activity vs control	92%
CN1C(=S)N(c2ccccc2)C(=O)/C1=C1/C(=O)N(C)c2ccc(Cl)cc21	Acetylcholinesterase (ACHE, Homo sapiens, UniProt P22303)	enzyme activity, inhibitor, Ellman	1 µM	inhibition	42%
CCCNC(=O)c1ccnc(-c2ccc(CNC3Cc4ccccc4C3)cc2)c1	PFF0160c	enzyme activity, inhibitor, absorbance	–	IC50	3.39 µM
Cc1nn(C)cc1-c1nc2c(N3CCN(Cc4ccc(Cl)cc4)CC3)c(Cl)cnc2[nH]1	Serine/threonine-protein kinase ULK1 (ULK1, Homo sapiens, UniProt O75385)	binding, competition with immobilised ligand	1 µM	remaining binding	78%
N=C(N)NCCC[C@H](NS(=O)(=O)c1ccccc1)C(=O)N[C@@H](CCC(N)=O)C(=O)N[C@@H](Cc1ccccc1)C(=O)N[C@H](CCCNC(=N)N)C(=O)c1nccs1	TMPRSS2	enzyme activity, inhibitor	1 nM	activity vs control	66%
C[C@@H](O)[C@@H]1CN([C@H](Cc2ccc3ccccc3c2)CN2CCC[C@H]2CN2CCNC[C@@H]2Cc2ccc3ccccc3c2)CCN1CCc1ccc(Cl)c(Cl)c1	Kappa-type opioid receptor (OPRK1, Cavia porcellus, UniProt P41144)	ligand displacement, radioligand	0.5 µM, pH 7.5	remaining binding	117%
N=C(N)NCCC[C@H](NC(=O)[C@H](Cc1ccccc1)NC(=O)CCCC(N)=O)C(=O)c1nc2ccccc2s1	TMPRSS2	enzyme activity, inhibitor	1 nM	activity vs control	58%
COc1ncccc1-c1cnn2ccc(N3CCN(C(=O)OC(C)C)CC3)nc12	Dual specificity tyrosine-phosphorylation-regulated kinase 2 (DYRK2, Homo sapiens, UniProt Q92630)	binding, competition with immobilised ligand	1 µM	remaining binding	63%
C#Cc1n[nH]c2c(-c3cn(C(C)c4ccccn4)c(=O)[nH]c3=O)cc(F)cc12 (stereo not drawn)	Cyclin-dependent kinase 2, with cyclin A (CDK2, Homo sapiens, UniProt P24941)	enzyme activity, inhibitor	1 µM	inhibition	7.7%
Nc1ncc(-c2nc(N3CCOCC3)nc(N3CCOCC3)n2)c(C(F)F)n1	Tyrosine-protein kinase ABL1, phosphorylated (ABL1, Homo sapiens, UniProt P00519, Q252H)	binding, competition with immobilised ligand	10 µM	remaining binding	47%
CCCCC/C=C\C/C=C\C/C=C\Cc1ccccc1CCCC(=O)OC(CO)CO	Cannabinoid receptor 1 (CNR1, Homo sapiens, UniProt P21554)	β-arrestin recruitment, agonist	–	Emax	4%
[2H]c1c([2H])c([C@]2([2H])CCCN2C(=O)C(C)(C)Oc2ccc3cn[nH]c3c2)c([2H])c([2H])c1C([2H])([2H])[2H]	LIM domain kinase 1 (LIMK1, Homo sapiens, UniProt P53667)	binding, competition with immobilised ligand	1 µM	remaining binding	93%
Cn1cc(-c2ccc(-n3ccc(OCc4ccc(Cl)cn4)cc3=O)cn2)cn1	PFF0160c	enzyme activity, inhibitor, absorbance	–	IC50	13.4 µM
CC[C@H](NC(=O)[C@H](CCc1ccccc1)NC(=O)CCc1ccccc1)C(=O)N[C@@H](CCCNC(=N)N)C(=O)c1nc2ccccc2s1	TMPRSS2	enzyme activity, inhibitor	1 nM	activity vs control	65%

Some of these lines once more:
SMILES	target	assay	conditions	measurement	result
CCCCC/C=C\C/C=C\C/C=C\Cc1ccccc1CCCC(=O)OC(CO)CO	Cannabinoid receptor 1 (CNR1, Homo sapiens, UniProt P21554)	β-arrestin recruitment, agonist	–	Emax	4%
